Measurements collected from several papers.
Each line is one published result; not all experiments were run side by side. “And” joins repeats or separate records; there may be more than shown. ± marks the error that the study gave.

O=C(O)C(F)(F)C(F)(F)C(F)(F)C(F)(F)C(F)(F)C(F)(F)C(F)(F)C(F)(F)C(F)(F)C(F)(F)F
LDH release (hTERT-RPTEC parental; concentration not given, 96-well plate): 27.9 mU/mL and 23.6 mU/mL and 25.9 mU/mL and 19.7 mU/mL

CN(C)c1ccc(C(Nc2nc3c(-c4ccc([N+](=O)[O-])cc4)nn(-c4ccccc4)c3s2)P(=O)(Oc2ccccc2)Oc2ccccc2)cc1 (stereo not shown)
viability (Vero cells; SRB; 10 µM, 10% fetal bovine serum): 95.4%

N=C(N)NCCC[C@H](NC(=O)[C@H](CCCNC(=N)N)NC(=O)[C@H](CCCNC(=N)N)NC(=O)[C@H](CCC(N)=O)NC(=O)[C@H](CCCNC(=N)N)NC(=O)[C@H](CCCNC(=N)N)NC(=O)[C@H](CCCCN)NC(=O)[C@H](CCCCN)NC(=O)[C@H](CCCNC(=N)N)NC(=O)CNC(=O)[C@@H](N)Cc1ccc(O)cc1)C(=O)O
viability (DF-1; LDH release; 25 µM, 1 h): 97.7 ± 9.14%

CC[C@H](C)[C@H](NC(=O)[C@@H](N)CC(N)=O)C(=O)N1CCC[C@H]1C(=O)N1CCC[C@H]1C(=O)N[C@@H](CC(C)C)C(=O)N[C@H](C(=O)N[C@@H](CCC(N)=O)C(=O)N[C@H](C(=O)N1CCC[C@H]1C(=O)N[C@H](C(=O)N[C@H](C(=O)N[C@H](C(=O)N1CCC[C@H]1C(=O)N1CCC[C@H]1C(=O)N[C@@H](Cc1ccccc1)C(=O)N[C@@H](CC(C)C)C(=O)N[C@@H](CCC(N)=O)C(=O)N1CCC[C@H]1C(=O)N[C@@H](CCC(=O)O)C(=O)O)C(C)C)C(C)C)C(C)C)[C@@H](C)O)[C@@H](C)O
transport (Caco-2 monolayers; 10 µM, 30 min, 37 °C): 0.39 ± 0.17%

COc1ccc2c(c1)c(CC(=O)O)c(C)n2C(=O)c1ccc(Cl)cc1
IC10 (HEK293-H PPARγ-UAS-bla cells; cell viability, IncuCyte imaging; 24 h, freely dissolved concentration): 61.1 µM

Oc1ccc(C2(c3ccc(O)cc3)c3ccccc3-c3ccccc32)cc1
viable cells (HepG2 spheroids, dissociated; annexin V-FITC/PI flow cytometry; 0.01 µM, 96 h): 39.5 ± 19%

N=C(N)NCCC[C@H](NC(=O)[C@H](CCCNC(=N)N)NC(=O)[C@H](CCCCN)NC(=O)[C@H](CCCNC(=N)N)NC(=O)[C@H](Cc1ccccc1)NC(=O)[C@H](Cc1ccc(O)cc1)NC(=O)[C@H](CCCNC(=N)N)NC(=O)[C@H](CCCNC(=N)N)NC(=O)[C@H](CCCNC(=N)N)NC(=O)[C@H](CCCNC(=N)N)NC(=O)[C@H](CCCNC(=N)N)NC(=O)[C@H](Cc1ccc(O)cc1)NC(=O)[C@H](CCCNC(=N)N)NC(=O)[C@@H](N)CCCNC(=N)N)C(=O)O
viability (DF-1; 5 µM, 48 h; relative to: untreated cells): 101 ± 1.32%

CN(C)CCn1c(C(=O)N2CCN(c3ccccc3Cl)CC2)c(C(c2ccc(O)cc2)c2ccc(O)cc2)c2ccccc21
CC50 (293T-ACE2; 40 (unit not given)): > 2.5 µM

Cc1cc(C(C)(C)c2ccc(O)c(C)c2)ccc1O
early apoptotic cells (HepG2 spheroids, dissociated; annexin V-FITC/PI flow cytometry; 1 µM, 24 h): 13.9 ± 1.76%

C[C@H](NC(=O)[C@H](Cc1ccc(O)cc1)NC(=O)[C@H](CCCNC(=N)N)NC(=O)[C@H](CCCNC(=N)N)NC(=O)[C@H](CCCNC(=N)N)NC(=O)[C@@H](N)CCCNC(=N)N)C(=O)N[C@@H](CCCNC(=N)N)C(=O)N1CCC[C@H]1C(=O)N[C@@H](Cc1ccc(O)cc1)C(=O)N[C@@H](Cc1ccc(O)cc1)C(=O)N[C@@H](CCCNC(=N)N)C(=O)N[C@@H](CCCNC(=N)N)C(=O)N[C@@H](CCCNC(=N)N)C(=O)O
viability (DF-1; 5 µM, 12 h; relative to: untreated cells): 103 ± 1.11%

O=c1ccc2ccccc2o1
chance response (NHEK; cell count; concentration not given, 1 h, NRF2 oxidative stress panel): 0%

CC(C)(c1ccc(O)cc1)c1ccc(O)cc1
early apoptotic cells (HepG2 spheroids, dissociated; annexin V-FITC/PI flow cytometry; 0.01 µM, 96 h): 6.19 ± 3.02%

N#C[C@@]1(n2ccc(N)nc2=O)O[C@H](CO)[C@@H](O)[C@H]1O
micronucleated cells (CHO; 500 µM, with S9): 0.3%

Repeated from above:
N=C(N)NCCC[C@H](NC(=O)[C@H](CCCNC(=N)N)NC(=O)[C@H](CCCNC(=N)N)NC(=O)[C@H](CCC(N)=O)NC(=O)[C@H](CCCNC(=N)N)NC(=O)[C@H](CCCNC(=N)N)NC(=O)[C@H](CCCCN)NC(=O)[C@H](CCCCN)NC(=O)[C@H](CCCNC(=N)N)NC(=O)CNC(=O)[C@@H](N)Cc1ccc(O)cc1)C(=O)O
viability (DF-1; LDH release; 25 µM, 1 h): 97.7 ± 9.14%
